Published values pooled from the literature.
Numbers after ± are the reported error.
UniProt P02769, sequence (whole entry, looked up): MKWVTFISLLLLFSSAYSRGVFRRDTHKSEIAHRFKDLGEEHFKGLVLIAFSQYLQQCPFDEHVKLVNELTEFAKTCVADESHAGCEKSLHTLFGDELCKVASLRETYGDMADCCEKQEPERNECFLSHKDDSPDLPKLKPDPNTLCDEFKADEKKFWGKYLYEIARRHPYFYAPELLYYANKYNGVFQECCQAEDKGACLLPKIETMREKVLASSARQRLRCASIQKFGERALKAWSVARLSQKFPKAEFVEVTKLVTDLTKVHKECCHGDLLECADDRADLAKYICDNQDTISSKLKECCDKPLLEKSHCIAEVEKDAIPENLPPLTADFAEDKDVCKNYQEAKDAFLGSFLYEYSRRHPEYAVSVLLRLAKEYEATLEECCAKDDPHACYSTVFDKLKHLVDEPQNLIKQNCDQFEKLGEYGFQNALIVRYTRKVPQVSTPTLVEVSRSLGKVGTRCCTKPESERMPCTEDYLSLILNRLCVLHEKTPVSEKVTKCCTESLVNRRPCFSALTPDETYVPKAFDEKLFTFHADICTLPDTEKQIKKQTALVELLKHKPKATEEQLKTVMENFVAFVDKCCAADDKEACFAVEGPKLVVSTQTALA
UniProt Q9Y6L6, sequence (whole entry, looked up): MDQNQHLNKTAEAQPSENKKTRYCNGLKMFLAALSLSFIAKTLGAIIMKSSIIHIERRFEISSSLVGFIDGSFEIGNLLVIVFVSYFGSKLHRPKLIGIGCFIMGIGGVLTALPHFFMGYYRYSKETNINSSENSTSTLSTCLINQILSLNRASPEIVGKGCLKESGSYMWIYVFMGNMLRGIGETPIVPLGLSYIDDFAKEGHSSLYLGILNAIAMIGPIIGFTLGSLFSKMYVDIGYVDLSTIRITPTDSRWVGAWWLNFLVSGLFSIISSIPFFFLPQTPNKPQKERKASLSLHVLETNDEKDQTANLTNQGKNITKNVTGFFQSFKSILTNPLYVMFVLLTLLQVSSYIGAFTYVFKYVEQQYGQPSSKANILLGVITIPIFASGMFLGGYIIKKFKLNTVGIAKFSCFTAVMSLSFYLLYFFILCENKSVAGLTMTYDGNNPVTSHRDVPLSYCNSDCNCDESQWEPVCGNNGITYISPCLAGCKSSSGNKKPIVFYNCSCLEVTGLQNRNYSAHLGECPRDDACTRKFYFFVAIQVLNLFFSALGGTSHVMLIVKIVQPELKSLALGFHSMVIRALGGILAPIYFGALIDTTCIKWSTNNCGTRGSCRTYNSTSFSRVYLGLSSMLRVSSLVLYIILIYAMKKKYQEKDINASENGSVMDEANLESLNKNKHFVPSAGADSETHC

| tested on | assay | test system | setting | how to read | endpoint | result | SMILES |
| --- | --- | --- | --- | --- | --- | --- | --- |
|  |  | young Japanese adults, plasma | oral, 10 mg single dose, day 1, high-dose multiple-dose study |  | half-life range over subjects | 13.2 to 24.9 h | Cn1c(-c2ccc(C(N)=O)cc2F)nnc1C(C)(C)Oc1c(F)cc(Cl)cc1F |
| Albumin (ALB, Bos taurus, UniProt P02769) | ultrafiltration | Bos taurus, albumin solution | 0.5 µg/mL, 60 min, with: atractylenolide III 0.1 µg/mL |  | unbound fraction | 0.728 | COCCc1ccc(OCC(O)CNC(C)C)cc1 (stereo not drawn) |
| Leishmania donovani |  | intracellular amastigote |  |  | EC50 | 26 ± 8.1 µM | Nc1nc(NCC2CCC(CNS(=O)(=O)c3cccc4ccccc34)CC2)nc2ccccc12 (stereo not drawn) |
|  | cytochrome c release, ELISA | BALB/cByJ female mouse liver mitochondria | 30 min | relative to: alamethicin maximal release | EC20 | 299 µM | Clc1ccc(COC(Cn2ccnc2)c2ccc(Cl)cc2Cl)cc1 (stereo not drawn) |
| SERT |  | male Sprague Dawley rat, PCA-treated, striatum | intravenous, 60 min |  | tissue uptake | 0.24 ± 0.07 %ID/g | CN(C)Cc1cc(OCCC[18F])ccc1Sc1ccccc1N |
|  | cytochrome c release, ELISA | BALB/cByJ female mouse liver mitochondria | 30 min | relative to: alamethicin maximal release | EC20 | > 800 µM | OC[C@H]1O[C@@](CO)(O[C@H]2O[C@H](CO)[C@@H](O)[C@H](O)[C@H]2O)[C@@H](O)[C@@H]1O |
| Solute carrier organic anion transporter family member 1B1 (SLCO1B1, Homo sapiens, UniProt Q9Y6L6) | transport, refers to: estradiol-17β-glucuronide uptake | HEK293 transfected | 5 µM | relative to: vehicle | remaining activity | 85.7 ± 6.4% | C=CC(=O)N1CCC([C@@H]2CCNc3c(C(N)=O)c(-c4ccc(Oc5ccccc5)cc4)nn32)CC1 |
|  | cytochrome c release, ELISA | BALB/cByJ female mouse liver mitochondria | 30 min | relative to: alamethicin maximal release | EC20 | > 400 µM | C=CC1=C(C(=O)O)N2C(=O)[C@@H](NC(=O)/C(=N\OCC(=O)O)c3csc(N)n3)[C@H]2SC1 |
|  |  | human patients, plasma | oral, 160 mg once daily, day 15, 24 h, steady state, arithmetic mean |  | AUC(0-t) | 4110 ng·h/mL | CNCc1ccc(-c2[nH]c3cc(F)cc4c3c2CCNC4=O)cc1 |

Some of these lines once more:
| tested on | assay | test system | setting | how to read | endpoint | result | SMILES |
| --- | --- | --- | --- | --- | --- | --- | --- |
|  | cytochrome c release, ELISA | BALB/cByJ female mouse liver mitochondria | 30 min | relative to: alamethicin maximal release | EC20 | 299 µM | Clc1ccc(COC(Cn2ccnc2)c2ccc(Cl)cc2Cl)cc1 (stereo not drawn) |
